Experimental data pooled from the literature.
A part holds a random share of what one study measured.
UniProt Q96PY6, sequence (whole entry, looked up): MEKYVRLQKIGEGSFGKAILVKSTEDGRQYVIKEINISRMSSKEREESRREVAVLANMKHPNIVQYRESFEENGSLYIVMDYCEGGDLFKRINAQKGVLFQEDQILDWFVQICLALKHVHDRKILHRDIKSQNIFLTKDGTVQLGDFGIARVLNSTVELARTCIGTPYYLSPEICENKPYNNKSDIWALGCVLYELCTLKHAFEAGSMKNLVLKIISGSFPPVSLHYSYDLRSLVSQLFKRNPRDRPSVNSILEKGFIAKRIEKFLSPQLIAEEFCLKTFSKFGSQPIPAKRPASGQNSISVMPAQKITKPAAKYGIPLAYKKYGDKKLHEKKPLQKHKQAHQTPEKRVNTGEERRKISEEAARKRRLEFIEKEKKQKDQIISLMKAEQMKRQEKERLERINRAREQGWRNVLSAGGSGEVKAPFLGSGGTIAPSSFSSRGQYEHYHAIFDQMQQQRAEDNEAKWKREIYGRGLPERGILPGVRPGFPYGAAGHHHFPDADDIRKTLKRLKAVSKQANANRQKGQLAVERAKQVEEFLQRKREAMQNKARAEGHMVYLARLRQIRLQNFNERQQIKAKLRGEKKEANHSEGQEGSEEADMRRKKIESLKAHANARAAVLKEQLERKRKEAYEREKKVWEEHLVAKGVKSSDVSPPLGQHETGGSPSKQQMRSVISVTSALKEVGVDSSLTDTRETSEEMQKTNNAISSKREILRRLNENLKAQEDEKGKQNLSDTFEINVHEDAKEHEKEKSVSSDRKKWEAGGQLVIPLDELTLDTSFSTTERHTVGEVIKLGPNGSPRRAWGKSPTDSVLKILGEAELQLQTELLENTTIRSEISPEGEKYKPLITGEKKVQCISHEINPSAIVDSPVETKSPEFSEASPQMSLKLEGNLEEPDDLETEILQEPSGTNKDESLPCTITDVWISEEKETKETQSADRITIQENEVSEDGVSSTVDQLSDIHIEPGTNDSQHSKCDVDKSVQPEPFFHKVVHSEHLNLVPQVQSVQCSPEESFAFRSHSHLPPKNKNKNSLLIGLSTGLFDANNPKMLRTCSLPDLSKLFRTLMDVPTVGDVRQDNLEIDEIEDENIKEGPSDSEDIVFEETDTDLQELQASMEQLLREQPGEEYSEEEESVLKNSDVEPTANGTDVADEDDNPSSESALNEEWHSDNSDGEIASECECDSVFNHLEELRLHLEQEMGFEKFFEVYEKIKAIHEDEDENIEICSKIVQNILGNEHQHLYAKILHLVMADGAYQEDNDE
UniProt Q9Y243, sequence (whole entry, looked up): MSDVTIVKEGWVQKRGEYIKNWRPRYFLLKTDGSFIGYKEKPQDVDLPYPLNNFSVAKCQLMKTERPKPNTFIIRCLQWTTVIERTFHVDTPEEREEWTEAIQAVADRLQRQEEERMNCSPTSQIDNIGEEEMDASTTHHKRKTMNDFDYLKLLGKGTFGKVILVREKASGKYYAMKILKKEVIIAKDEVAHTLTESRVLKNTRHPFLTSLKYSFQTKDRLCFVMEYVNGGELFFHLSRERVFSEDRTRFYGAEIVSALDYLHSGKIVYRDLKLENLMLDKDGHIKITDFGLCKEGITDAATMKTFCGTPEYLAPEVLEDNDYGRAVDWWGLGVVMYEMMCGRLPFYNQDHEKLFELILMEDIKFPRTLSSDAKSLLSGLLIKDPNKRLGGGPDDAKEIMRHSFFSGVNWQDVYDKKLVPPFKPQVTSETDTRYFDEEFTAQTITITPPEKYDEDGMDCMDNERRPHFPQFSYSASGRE
UniProt Q9NYY3, sequence (whole entry, looked up): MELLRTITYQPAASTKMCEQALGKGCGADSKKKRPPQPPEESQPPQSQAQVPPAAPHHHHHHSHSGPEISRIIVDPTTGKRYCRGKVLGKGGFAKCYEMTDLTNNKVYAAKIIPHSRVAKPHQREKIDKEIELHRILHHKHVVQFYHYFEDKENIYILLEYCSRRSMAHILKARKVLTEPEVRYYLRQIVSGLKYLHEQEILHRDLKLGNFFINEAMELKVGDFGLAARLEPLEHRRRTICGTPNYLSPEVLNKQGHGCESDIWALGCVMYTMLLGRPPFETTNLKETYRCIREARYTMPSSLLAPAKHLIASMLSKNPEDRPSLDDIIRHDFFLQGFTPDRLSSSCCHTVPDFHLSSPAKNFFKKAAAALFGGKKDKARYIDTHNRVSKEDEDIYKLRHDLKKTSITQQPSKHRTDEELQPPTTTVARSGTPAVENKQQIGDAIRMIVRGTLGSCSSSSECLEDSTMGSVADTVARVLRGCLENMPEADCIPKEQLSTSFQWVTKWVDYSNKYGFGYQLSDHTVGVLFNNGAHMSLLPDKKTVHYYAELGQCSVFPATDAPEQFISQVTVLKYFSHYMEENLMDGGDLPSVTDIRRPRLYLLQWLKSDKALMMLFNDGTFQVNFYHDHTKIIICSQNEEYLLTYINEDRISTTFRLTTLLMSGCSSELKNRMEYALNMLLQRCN
UniProt Q2M2I8, sequence (whole entry, looked up): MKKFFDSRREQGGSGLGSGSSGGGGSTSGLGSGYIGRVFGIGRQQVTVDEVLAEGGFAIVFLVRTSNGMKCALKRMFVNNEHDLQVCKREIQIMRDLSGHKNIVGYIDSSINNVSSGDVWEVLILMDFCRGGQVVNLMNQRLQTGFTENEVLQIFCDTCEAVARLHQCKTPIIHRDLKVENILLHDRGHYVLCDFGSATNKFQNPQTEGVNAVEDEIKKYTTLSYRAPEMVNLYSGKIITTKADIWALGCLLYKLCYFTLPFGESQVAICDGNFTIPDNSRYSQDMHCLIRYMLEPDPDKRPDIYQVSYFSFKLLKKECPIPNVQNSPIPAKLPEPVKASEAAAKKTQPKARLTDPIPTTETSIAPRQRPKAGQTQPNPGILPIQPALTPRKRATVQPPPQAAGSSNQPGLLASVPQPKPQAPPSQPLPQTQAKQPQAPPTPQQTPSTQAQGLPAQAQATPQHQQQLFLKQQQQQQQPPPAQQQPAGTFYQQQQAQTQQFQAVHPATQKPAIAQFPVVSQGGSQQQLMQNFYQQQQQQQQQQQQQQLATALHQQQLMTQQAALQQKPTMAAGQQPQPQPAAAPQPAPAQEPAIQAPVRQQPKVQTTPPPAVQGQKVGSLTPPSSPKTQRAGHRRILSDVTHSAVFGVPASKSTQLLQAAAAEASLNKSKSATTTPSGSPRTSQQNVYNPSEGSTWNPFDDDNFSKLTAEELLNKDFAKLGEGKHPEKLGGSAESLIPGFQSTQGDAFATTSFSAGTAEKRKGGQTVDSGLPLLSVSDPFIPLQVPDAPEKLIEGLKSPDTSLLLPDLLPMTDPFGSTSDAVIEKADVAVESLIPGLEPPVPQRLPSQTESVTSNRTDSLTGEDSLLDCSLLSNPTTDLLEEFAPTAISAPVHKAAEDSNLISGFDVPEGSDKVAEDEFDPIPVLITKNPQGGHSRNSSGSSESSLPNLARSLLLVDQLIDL
UniProt Q05655, sequence (whole entry, looked up): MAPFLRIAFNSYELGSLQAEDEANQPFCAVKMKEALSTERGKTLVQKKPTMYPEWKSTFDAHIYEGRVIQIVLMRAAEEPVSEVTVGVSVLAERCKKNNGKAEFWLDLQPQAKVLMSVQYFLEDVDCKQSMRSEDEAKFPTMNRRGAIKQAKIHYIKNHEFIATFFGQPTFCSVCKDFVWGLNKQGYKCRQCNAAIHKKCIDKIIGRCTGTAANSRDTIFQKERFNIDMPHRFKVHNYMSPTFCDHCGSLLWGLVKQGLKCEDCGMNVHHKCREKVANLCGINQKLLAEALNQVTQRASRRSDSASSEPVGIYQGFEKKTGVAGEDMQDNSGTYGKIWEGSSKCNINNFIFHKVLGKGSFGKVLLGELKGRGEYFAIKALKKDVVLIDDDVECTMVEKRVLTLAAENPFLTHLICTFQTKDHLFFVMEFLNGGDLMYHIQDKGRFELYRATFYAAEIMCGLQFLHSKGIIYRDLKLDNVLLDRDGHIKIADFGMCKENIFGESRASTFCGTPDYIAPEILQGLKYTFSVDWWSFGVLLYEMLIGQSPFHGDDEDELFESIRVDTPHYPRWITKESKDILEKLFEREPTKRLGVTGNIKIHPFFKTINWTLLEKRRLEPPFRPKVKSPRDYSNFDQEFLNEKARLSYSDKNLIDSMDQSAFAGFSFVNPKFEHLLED
UniProt P04629, sequence (whole entry, looked up): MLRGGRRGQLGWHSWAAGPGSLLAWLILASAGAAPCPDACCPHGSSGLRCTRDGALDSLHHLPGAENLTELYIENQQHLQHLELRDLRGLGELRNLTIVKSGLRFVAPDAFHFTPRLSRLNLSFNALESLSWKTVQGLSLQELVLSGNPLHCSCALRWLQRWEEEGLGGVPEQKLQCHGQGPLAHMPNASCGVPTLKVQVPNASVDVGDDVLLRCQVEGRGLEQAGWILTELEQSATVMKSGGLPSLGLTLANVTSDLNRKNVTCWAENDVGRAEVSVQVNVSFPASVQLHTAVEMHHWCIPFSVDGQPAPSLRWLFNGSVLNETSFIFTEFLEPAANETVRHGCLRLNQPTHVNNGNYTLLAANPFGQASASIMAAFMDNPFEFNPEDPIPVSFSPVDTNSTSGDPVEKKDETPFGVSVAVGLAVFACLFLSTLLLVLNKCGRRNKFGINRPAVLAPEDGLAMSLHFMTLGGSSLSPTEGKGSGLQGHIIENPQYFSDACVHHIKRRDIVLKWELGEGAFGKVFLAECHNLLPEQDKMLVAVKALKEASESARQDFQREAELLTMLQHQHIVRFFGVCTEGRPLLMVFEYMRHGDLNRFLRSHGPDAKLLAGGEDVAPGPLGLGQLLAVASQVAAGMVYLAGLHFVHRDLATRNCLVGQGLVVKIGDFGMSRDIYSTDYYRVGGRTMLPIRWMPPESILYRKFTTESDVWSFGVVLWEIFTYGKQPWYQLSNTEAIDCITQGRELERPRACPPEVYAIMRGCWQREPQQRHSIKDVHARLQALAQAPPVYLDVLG

Set 1
Target: Sox, HMG box (Pigoraptor chileana)
Technique: Spec-seq
Molecule type: double-stranded DNA, one strand shown
Matrix: in vitro
Tested at: not given
Notes: whole probe, mean of replicates
Relative to: not given
Direction: lower = stronger binding
Shared flanks, not repeated: GAGTCGTCTCGTCAGCAC … CCGTAGAGCACTCAGGTC
Construct (chain): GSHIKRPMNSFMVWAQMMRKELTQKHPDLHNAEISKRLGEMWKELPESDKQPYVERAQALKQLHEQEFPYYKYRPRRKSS
For `CTGGGTT`, “relative binding energy” read 1.3 ln ratio.
For `GCACGTT`, “relative binding energy” read 1.26 ln ratio.
For `GGGTGTT`, “relative binding energy” read 0.963 ln ratio.
For `CATTATC`, “relative binding energy” read -1.76 ln ratio.
Under “relative binding energy”, `TAAAGTT` is recorded as 0.292 ln ratio.
Under “relative binding energy”, `CATTCAA` is recorded as -0.747 ln ratio.
`CATGGGG` — result for “relative binding energy”: 0.73 ln ratio.
`CATCAGG`: “relative binding energy” 0.215 ln ratio.

Set 2
Target: Histone acetyltransferase KAT6A, winged helix 2, GST fusion (KAT6A, Homo sapiens, UniProt Q92794, residues 85-181)
Technique: protein binding microarray
Molecule type: double-stranded DNA, one strand shown
Matrix: in vitro
Tested at: not given
Notes: 8-mer, flanks averaged, mean of 2 arrays, mostly near background
Relative to: not given
Direction: higher = stronger binding
Residues (chain): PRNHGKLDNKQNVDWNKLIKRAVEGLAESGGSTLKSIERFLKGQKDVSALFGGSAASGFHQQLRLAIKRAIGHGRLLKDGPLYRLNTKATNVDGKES
For `GTCACTTA`, the E-score was 0.144.
The E-score of `TAGCTGGA` is reported as -0.0191.
For `AGCGGGAA`, the E-score was 0.216.
With `GACTGAGC` the E-score was 0.00975.
`GACCCACA` gave an E-score of 0.128.
For `ATTTTCCC`, the E-score was 0.0552.
With `CTGAGCCC` the E-score was -0.0756.
`AAAATCCC` has an E-score of -0.0613.

Set 3
SMILES: COc1ccc2c(O[C@@H]3C[C@H]4C(=O)N[C@]5(C(=O)O)CC5/C=C\CCCCC[C@H](NC(=O)OC5CCCC5)C(=O)N4C3)cc(-c3csc(NC(=O)C(C)C)n3)nc2c1C (stereo partly drawn)
Tested at: 1 µM
It gave 100% for remaining binding (PRKCH (Homo sapiens, UniProt P24723); cell-free assay, competition with immobilised ligand).
The remaining binding was 69% (IRAK1 (Homo sapiens, UniProt P51617); cell-free assay, competition with immobilised ligand).
For NEK1 (Homo sapiens, UniProt Q96PY6); cell-free assay, competition with immobilised ligand: remaining binding read 100%.
For PRKD2 (Homo sapiens, UniProt Q9BZL6); cell-free assay, competition with immobilised ligand: remaining binding read 95%.
For MAP2K3 (Homo sapiens, UniProt P46734); cell-free assay, competition with immobilised ligand: remaining binding read 82%.
For NTRK1 (Homo sapiens, UniProt P04629); cell-free assay, competition with immobilised ligand: remaining binding read 82%.
It gave 100% for remaining binding (MAPK15 (Homo sapiens, UniProt Q8TD08); cell-free assay, competition with immobilised ligand).
The remaining binding was 87% (WNK2 (Homo sapiens, UniProt Q9Y3S1); cell-free assay, competition with immobilised ligand).
For MST1R (Homo sapiens, UniProt Q04912); cell-free assay, competition with immobilised ligand: remaining binding read 100%.
The remaining binding was 100% (AAK1 (Homo sapiens, UniProt Q2M2I8); KINOMEscan; relative to: control).
For MTOR (Homo sapiens, UniProt P42345); cell-free assay, competition with immobilised ligand: remaining binding read 100%.

Set 4
SMILES: COc1cc2c(N3CCN(C(=O)Nc4ccc(OC(C)C)cc4)CC3)ncnc2cc1OCCCN1CCCCC1
Read-out: enzyme activity
Mode: inhibitor
Tested at: 0.5 µM
Relative to: control
The remaining activity was 99.8% (PLK2 (Homo sapiens, UniProt Q9NYY3)).
For CSNK1A1 (Homo sapiens, UniProt P48729): remaining activity read 101%.
MAP2K6 (Homo sapiens, UniProt P52564) — remaining activity: 102%.
The remaining activity was 106% (AKT3 (Homo sapiens, UniProt Q9Y243)).
The remaining activity was 101% (PRKCD (Homo sapiens, UniProt Q05655)).
It gave 108% for remaining activity (CHEK1 (Homo sapiens, UniProt O14757)).

For quick reference, copied from above (set 1):
For `GGGTGTT`, “relative binding energy” read 0.963 ln ratio.
For `CATTATC`, “relative binding energy” read -1.76 ln ratio.
Under “relative binding energy”, `TAAAGTT` is recorded as 0.292 ln ratio.
